Experimental data pooled from the literature.
Protocols differ between the studies behind these lines. Values joined by “and” are separate records of one study, mostly repeats; a detail may differ. Numbers after ± are the reported error.
lasR: Transcriptional activator protein LasR (lasR, Pseudomonas aeruginosa, UniProt P25084)
CTSG: Cathepsin G (CTSG, Homo sapiens, UniProt P08311)
UniProt P08311, sequence (whole entry, looked up): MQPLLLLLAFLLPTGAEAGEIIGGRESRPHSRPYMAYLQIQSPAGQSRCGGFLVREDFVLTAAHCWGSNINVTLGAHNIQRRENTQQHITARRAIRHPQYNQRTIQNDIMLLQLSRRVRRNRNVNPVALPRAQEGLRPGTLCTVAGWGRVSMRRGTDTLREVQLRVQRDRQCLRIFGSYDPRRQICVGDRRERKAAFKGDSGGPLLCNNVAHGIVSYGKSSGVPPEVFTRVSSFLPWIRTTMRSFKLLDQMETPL
SRPK1: SRSF protein kinase 1 (SRPK1, Homo sapiens, UniProt Q96SB4)
UniProt Q96SB4, sequence (whole entry, looked up): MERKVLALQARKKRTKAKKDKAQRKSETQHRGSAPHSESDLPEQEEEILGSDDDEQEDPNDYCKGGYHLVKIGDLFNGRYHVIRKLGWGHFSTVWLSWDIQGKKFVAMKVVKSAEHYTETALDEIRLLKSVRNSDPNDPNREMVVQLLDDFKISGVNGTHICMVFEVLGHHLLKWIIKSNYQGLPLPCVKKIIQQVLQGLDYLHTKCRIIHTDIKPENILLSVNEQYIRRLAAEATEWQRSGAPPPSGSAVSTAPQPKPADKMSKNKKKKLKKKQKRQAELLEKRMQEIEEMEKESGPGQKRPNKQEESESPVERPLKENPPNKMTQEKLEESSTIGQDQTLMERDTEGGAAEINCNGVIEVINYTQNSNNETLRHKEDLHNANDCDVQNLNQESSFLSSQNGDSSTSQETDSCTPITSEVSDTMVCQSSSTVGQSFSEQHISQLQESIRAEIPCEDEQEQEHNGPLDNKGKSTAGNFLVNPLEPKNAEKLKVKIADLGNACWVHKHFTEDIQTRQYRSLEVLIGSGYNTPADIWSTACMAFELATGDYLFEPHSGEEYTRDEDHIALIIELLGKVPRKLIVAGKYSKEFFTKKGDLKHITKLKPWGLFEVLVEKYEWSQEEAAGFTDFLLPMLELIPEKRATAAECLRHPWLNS
Uncharacterized hydrolase SAUSA300_2518: Uncharacterized hydrolase SAUSA300_2518 (Staphylococcus aureus, UniProt Q2FDS6)
UniProt O14733, sequence (whole entry, looked up): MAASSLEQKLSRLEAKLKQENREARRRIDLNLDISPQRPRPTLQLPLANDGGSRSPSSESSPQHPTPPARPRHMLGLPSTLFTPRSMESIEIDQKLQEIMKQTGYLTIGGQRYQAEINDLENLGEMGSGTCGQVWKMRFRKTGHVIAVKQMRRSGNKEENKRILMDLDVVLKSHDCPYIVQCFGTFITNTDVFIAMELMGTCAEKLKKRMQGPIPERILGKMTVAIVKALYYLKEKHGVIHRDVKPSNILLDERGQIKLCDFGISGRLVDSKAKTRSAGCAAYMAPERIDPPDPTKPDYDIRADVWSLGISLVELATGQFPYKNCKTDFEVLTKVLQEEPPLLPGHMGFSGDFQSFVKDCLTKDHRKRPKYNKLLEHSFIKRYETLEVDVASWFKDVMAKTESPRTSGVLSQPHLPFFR
UniProt Q86U44, sequence (whole entry, looked up): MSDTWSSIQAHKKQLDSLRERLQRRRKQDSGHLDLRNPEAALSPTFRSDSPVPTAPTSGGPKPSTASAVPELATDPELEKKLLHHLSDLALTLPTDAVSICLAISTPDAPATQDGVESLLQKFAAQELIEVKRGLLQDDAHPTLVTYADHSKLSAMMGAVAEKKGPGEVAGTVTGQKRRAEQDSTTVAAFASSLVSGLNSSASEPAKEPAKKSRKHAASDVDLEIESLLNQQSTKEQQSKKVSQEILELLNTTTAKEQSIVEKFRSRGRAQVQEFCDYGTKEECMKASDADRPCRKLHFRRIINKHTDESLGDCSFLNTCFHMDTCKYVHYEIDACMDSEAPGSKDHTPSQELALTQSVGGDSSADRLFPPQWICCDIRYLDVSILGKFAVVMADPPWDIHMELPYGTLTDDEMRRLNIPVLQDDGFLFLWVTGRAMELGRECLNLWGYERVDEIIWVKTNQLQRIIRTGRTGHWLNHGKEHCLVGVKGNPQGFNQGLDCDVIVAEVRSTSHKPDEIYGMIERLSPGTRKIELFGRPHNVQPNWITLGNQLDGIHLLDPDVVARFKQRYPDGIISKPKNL
UniProt P53355, sequence (whole entry, looked up): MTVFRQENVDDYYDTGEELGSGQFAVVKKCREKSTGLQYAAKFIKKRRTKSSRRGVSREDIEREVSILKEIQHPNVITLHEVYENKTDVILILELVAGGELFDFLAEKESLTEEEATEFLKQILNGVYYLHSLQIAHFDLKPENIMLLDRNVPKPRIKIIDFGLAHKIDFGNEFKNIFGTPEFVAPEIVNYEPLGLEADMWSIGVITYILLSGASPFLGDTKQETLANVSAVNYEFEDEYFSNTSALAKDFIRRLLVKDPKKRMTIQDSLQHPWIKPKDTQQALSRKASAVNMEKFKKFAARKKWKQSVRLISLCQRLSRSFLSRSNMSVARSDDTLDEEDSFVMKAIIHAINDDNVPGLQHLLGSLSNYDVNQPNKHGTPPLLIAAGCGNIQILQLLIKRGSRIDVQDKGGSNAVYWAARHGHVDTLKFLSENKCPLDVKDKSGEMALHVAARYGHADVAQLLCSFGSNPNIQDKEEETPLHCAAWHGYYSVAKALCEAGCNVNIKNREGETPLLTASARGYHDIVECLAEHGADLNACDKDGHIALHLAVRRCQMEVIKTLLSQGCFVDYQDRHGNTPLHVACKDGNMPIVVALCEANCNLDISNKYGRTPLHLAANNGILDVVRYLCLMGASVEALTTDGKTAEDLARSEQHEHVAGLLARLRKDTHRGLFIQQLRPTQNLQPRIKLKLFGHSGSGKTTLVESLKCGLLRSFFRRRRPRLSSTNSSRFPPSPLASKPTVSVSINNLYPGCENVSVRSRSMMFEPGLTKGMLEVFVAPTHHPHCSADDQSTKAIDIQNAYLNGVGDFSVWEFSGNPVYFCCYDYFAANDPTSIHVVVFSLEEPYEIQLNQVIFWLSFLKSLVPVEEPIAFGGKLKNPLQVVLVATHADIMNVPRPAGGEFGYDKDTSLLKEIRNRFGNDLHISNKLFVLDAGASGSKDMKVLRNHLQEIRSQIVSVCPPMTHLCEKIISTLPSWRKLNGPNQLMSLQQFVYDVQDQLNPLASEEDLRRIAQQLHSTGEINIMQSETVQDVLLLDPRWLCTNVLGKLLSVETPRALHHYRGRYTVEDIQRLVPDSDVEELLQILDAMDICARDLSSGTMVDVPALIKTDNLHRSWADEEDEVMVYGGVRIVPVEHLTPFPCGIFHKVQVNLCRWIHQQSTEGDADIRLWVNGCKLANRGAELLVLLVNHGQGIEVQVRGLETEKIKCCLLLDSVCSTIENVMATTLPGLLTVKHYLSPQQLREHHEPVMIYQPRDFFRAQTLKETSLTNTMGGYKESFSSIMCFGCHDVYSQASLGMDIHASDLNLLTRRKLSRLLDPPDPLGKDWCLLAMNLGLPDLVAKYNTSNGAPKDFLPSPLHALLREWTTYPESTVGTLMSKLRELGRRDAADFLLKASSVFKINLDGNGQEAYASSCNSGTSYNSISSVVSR
UniProt Q12852, sequence (whole entry, looked up): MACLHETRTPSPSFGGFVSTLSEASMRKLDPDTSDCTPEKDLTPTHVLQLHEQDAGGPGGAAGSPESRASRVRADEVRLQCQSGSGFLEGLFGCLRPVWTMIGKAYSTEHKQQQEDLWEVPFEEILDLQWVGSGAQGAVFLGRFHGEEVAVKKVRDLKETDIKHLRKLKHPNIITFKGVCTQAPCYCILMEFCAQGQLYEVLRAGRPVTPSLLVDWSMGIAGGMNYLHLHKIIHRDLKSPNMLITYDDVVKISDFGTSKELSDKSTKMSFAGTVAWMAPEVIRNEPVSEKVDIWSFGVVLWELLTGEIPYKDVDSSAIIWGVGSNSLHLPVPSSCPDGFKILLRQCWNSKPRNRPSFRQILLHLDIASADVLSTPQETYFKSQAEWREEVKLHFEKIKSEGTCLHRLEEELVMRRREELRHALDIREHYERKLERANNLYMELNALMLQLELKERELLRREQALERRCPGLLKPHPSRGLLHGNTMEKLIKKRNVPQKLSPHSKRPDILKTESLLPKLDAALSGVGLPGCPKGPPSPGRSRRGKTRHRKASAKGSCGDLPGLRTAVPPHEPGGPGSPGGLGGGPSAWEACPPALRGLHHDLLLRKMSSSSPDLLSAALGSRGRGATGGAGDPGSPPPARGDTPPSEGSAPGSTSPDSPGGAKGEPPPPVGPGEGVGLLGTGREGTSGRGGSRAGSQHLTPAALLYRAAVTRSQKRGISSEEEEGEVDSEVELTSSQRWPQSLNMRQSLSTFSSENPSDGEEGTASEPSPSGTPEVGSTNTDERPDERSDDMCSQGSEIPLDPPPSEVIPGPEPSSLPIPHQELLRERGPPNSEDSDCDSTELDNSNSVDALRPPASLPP
UniProt P32745, sequence (whole entry, looked up): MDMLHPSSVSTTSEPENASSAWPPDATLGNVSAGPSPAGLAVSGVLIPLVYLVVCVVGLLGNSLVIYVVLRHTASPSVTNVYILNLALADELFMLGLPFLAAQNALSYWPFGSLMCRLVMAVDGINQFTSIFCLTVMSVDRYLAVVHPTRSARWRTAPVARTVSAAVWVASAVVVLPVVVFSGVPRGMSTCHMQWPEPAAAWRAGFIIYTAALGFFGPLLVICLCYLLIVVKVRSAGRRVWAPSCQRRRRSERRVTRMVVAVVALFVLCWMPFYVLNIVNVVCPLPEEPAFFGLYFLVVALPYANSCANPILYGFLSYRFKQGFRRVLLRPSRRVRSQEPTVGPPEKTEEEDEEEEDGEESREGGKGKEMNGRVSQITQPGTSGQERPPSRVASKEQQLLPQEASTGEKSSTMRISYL
UniProt P48729, sequence (whole entry, looked up): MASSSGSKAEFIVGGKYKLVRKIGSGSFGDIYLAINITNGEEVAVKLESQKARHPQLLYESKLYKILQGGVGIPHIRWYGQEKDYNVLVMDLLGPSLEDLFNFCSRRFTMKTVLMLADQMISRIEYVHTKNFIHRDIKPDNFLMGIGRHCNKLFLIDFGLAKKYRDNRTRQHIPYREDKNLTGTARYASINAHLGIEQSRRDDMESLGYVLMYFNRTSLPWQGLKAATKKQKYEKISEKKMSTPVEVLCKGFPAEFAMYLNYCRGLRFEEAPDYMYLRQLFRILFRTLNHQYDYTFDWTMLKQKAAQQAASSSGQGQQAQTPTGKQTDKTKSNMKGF

Compound | target or system | assay | system | setting | scale | endpoint | result
CC(C)[C@H]1NC(=O)C[C@H]2/C=C/CCSSC[C@@H](NC1=O)C(=O)N[C@H](Cc1cccc3ccccc13)C(=O)NCC(=O)O2 | Dual specificity mitogen-activated protein kinase kinase 7 (MAP2K7, Homo sapiens, UniProt O14733) | – | – | 10 µM | – | inhibition | 2.3%
CCCCCCCCCCCCCCCCCC(=O)NC[C@H]1CC[C@H](C(=O)N[C@@H](CCC(=O)NCCCOCCOCCOCCCNC(=O)COCC(=O)N[C@@H](Cc2ccc(O)cc2)C(=O)NC(C)(Cc2ccccc2)C(=O)N[C@@H](CC(C)C)C(=O)N[C@@H](CCCC)C(=O)N[C@@H](CCCNC(=N)N)C(=O)N2CCC[C@H]2C(=O)N[C@@H](CCCNC(=N)NC)C(=O)N[C@@H](CC(N)=O)C(N)=O)C(=O)O)CC1 (stereo partly drawn) | Somatostatin receptor type 3 (SSTR3, Homo sapiens, UniProt P32745) | antagonist, DiscoverX GPCR panel | – | 1 µM | – | inhibition | 61%
CCOC(=O)[C@](CC)(CCCSCCOCCOCCNC(=O)c1ccc(-c2c3ccc(=N)c(S(=O)(=O)O)c-3oc3c(S(=O)(=O)O)c(N)ccc23)c(C(=O)O)c1)NC(=O)c1ccc(C2CC2)c(Cc2ccc(F)cc2)n1 | central benzodiazepine site | specific binding, agonist radioligand binding | – | 10 µM | – | inhibition | -1%
CCCCCCCCCC(=O)CC(=O)Nc1ccccc1 | lasR | reporter gene, antagonist | Pseudomonas aeruginosa PAO-JP2 | 100 µM, plasI-LVAgfp reporter, together with: OdDHL 150 nM | – | inhibition | 65%
COc1ccc(F)cc1S(=O)(=O)Nc1cnc2c(c1)C(=O)NCCO2 | CTSG | enzyme activity, inhibitor | – | 10 µM | – | inhibition | -6%
CC(C)(C)C(=O)OCOP(=O)(OCOC(=O)C(C)(C)C)C1CCCN(O)C1=O (stereo not drawn) | RXF 393 | – | – | – | – | log LC50 | > -4 log M
CC(=O)NC[C@@H]1C[C@@H](O)[C@H]2[C@H](O)C[C@@H](CO)N12 | β-N-acetylglucosaminidase | enzyme activity, inhibitor, colorimetric | Canavalia ensiformis | 18.8 nM, together with: p-nitrophenyl GlcNAc substrate | – | inhibition | 6.98% and 15%
CS(C)(=O)=Nc1ccc(-c2ccc(-c3nc4cc(O[C@@H]5CO[C@H]6[C@@H]5OC[C@H]6O)[nH]c4cc3F)cc2)cc1 | SRPK1 | enzyme activity, inhibitor | – | 10 µM | – | inhibition | -6%
CCCCCCCCCC(=O)NC1CCCC1 | lasR | reporter gene, antagonist | Escherichia coli JLD271 | 10 µM, pSC11 and pJN105L plasmids, together with: OdDHL 2 nM | – | inhibition | -36%
O=C(Nc1nccs1)c1c(O)c2c(n(Cc3ccccc3)c1=O)CCCC2 | Uncharacterized protein (Trypanosoma brucei brucei, UniProt Q386Q8) | enzyme activity, inhibitor, coupled colorimetric | – | 30 µM, together with: E. coli pyrophosphatase coupling | – | inhibition | 24.5%
O=C1NC2(CC2)COc2ncc(F)cc2[C@H]2COCCN2c2ccn3ncc1c3n2 | – | – | Sprague-Dawley rat, male, serum | oral, 2.5 mg/kg/day, end of treatment, 4-week subacute toxicity | – | serum total bilirubin | 1.1 ± 0.3 µmol/L
Cc1cc(-c2ccc3ccccc3c2)nnc1NCCN1CCN(C)CC1 | Cytochrome P450 2C19 (CYP2C19, Homo sapiens, UniProt P33261) | substrate | recombinant enzyme | 100 nM, 0.5 h | – | remaining compound | 92%
O=C1NC(=O)c2c1c1cc(F)c[n+]3c1c1c2c2cc(O)ccc2[n]1[Ru-4]312([N]=C=S)[S+]3CC[S+]1CC[S+]2CC3 (stereo not drawn) | SRPK1 | enzyme activity | – | 100 nM, human enzyme, together with: 10 µM ATP | baseline: untreated | remaining activity | 38%
CC[C@H](C)[C@H](NC(=O)[C@H](CO)NC(=O)[C@H](Cc1ccc(O)cc1)NC(=O)[C@H](Cc1ccc(O)cc1)NC(=O)[C@H](CC(N)=O)NC(=O)CNC(=O)[C@H](CO)NC(=O)[C@H](Cc1ccc(O)cc1)NC(=O)[C@H](CO)NC(=O)[C@H](CO)NC(=O)[C@H](CC(N)=O)NC(=O)COCCOCCNC(=O)CN1CCN(CC(=O)O)CCN(CC(=O)O)CCN(CC(=O)O)CC1)C(=O)N[C@@H](CC(C)C)C(N)=O [copper-64 labelled] | – | dynamic PET | mouse, tamoxifen-induced PDAC, blood | intravenous, 0.1 µg/mouse, 8.5 min | – | tumour uptake | 8.92 %ID/mL
Cc1ccc2c(n1)c(-c1cccc(S(C)(=O)=O)c1)c(C)n2C/C(F)=C/CN | CTSG | cell-free assay | – | 10 µM | – | inhibition | -12%
N#Cc1ccc(N2N=C3c4ccc(C(=O)O)cc4CCC3C2C2CCCC2)cc1Cl (stereo not drawn) | N6-adenosine-methyltransferase catalytic subunit, with METTL14 (METTL3, Homo sapiens, UniProt Q86U44) | enzyme activity | – | 10 µM | – | inhibition | 0%
COc1ccccc1-c1n[nH]c2nc(NC3CCN(C(=O)Cc4ccc(F)cc4F)CC3)ncc12 | – | bead binding, competition bead pull-down, item: LINJ.27.1710 | Leishmania donovani extract | 10 µM | baseline: vehicle | relative abundance | 0.98
C=C[C@@H]1C[C@]1(NC(=O)[C@@H]1C[C@@H]2CN1C(=O)[C@H](C(C)(C)C)NC(=O)O[C@@H]1C[C@H]1CCCCCc1nc3ccc(OC)cc3nc1O2)C(=O)NS(=O)(=O)C1CC1 | Ribosomal processing cysteine protease Prp (prp, Staphylococcus aureus, UniProt Q2FXS9, N63Q) | enzyme activity, inhibitor | – | 10 µM, prp 21.4 nM, together with: FITC peptide substrate 0.5 µM | – | inhibition | -8.3 ± 14.2%

Compound | target or system | assay | system | setting | scale | endpoint | result
Nc1ccc(/C=C/C(=O)N2CCc3c(oc4c(-c5ccc(F)cc5)cc(-c5ccc(C(=O)N6CCC(F)(F)CC6)cn5)cc34)C2)cn1 | Receptor-type tyrosine-protein kinase FLT3 (FLT3, Homo sapiens, UniProt P36888) | binding, competition with immobilised ligand | – | 1 µM | – | remaining binding | 100%
COc1ccccc1-c1n[nH]c2nc(N[C@H]3CC[C@H](NS(=O)(=O)CC(C)C)CC3)ncc12 | – | bead binding, competition bead pull-down, item: LMJF.05.0030 | Leishmania donovani extract | 10 µM | baseline: vehicle | relative abundance | 1.29
CN(CCO)CCO.O=C(O)C(Cl)Cl | Eclipta prostrata | – | – | 15 mg/mL, 21 days, pre-emergence, greenhouse | – | herbicidal inhibition | 0%
COc1cc(OC)cc(B(O)O)c1 | Uncharacterized hydrolase SAUSA300_2518 | enzyme activity, inhibitor | – | 50 µM | – | inhibition | 93.8%
C=CC(=O)Nc1cc(-c2nn(C3CCC(N4CCN(C(C)=O)CC4)CC3)c3ncnc(N)c23)ccc1Oc1ccccc1 (stereo not drawn) | Ribosomal protein S6 kinase alpha-3, C-terminal kinase domain (RPS6KA3, Homo sapiens, UniProt P51812) | inhibitor, KiNativ profiling | biochemical | 2 µM | – | inhibition | 2.6%
Cc1nc2cccc(OCC(C)(C)C(=O)NC(C)C)c2c(N)c1C(=O)[O-].[Na+] | Salmonella typhimurium | – | TA100 | 0.13 mg per plate, with S9, preincubation | – | revertant colonies per plate | 114 ± 13
O=C(CCc1ccc(Br)cc1)N[C@H]1CCOC1=O | lasR | reporter gene, antagonist | Pseudomonas aeruginosa PAO-JP2 | 100 µM, plasI-LVAgfp reporter, together with: OdDHL 150 nM | – | inhibition | 63%
CN(/N=C/c1ccccc1C(=O)O)c1nc(-c2ccccc2Cl)cs1 | Death-associated protein kinase 1 (DAPK1, Homo sapiens, UniProt P53355) | enzyme activity, inhibitor | – | 1 µM | – | inhibition | 8.43%
Cc1cc(C(=O)Nc2nc3cccc(C)c3n2[C@H]2CCCCN(C(=O)/C=C/CN(C)C)C2)ccn1 | Trypanosoma brucei | propidium iodide flow cytometry | bloodstream form | concentration not given, 24 h | – | cells in G2 phase | 33.2%
Cc1cc(B2OC(C)(C)C(C)(C)O2)ccc1S(N)(=O)=O | Uncharacterized hydrolase SAUSA300_2518 | enzyme activity, inhibitor | – | 50 µM | – | inhibition | 92%
CC(C)=CCc1c(O)ccc(-c2coc3cc(O)cc(O)c3c2=O)c1O | 3',5'-cyclic-AMP phosphodiesterase 4D (PDE4D, Homo sapiens, UniProt Q08499) | enzyme activity, inhibitor, radiometric | – | 5 µM | – | inhibition | 63.7%
N[C@H](C(=O)N1CCCC1)C1CCN(c2nccc3c(-c4ncc(Cl)cc4Cl)cccc23)CC1 | neuronal nicotinic acetylcholine receptor | binding, radioligand binding | – | 10 µM | – | inhibition | -2%
O=C(Cc1ccc(Br)cc1)N[C@H]1CCOC1=O | lasR | reporter gene, antagonist | Pseudomonas aeruginosa PAO-JP2 | 100 µM, plasI-LVAgfp reporter, together with: OdDHL 150 nM | – | inhibition | 44%
CN(C)[C@H]1C[C@@]23CC[C@@]4(O2)C(=CC[C@]2(C)[C@@H](c5ccc6ccncc6c5)CC[C@H]24)C=C3[C@@H](O)[C@@H]1O | Casein kinase I isoform alpha (CSNK1A1, Homo sapiens, UniProt P48729) | ATP probe labelling, inhibitor, KiNativ profiling | – | 1 µM | – | inhibition | -0.7%
O=C(O)c1ccccc1/C=N/Nc1nc(-c2ccccc2Cl)cs1 | NPM1-ALK | enzyme activity | – | 1 µM | – | inhibition | 20.8%
N=C(N)NCCC[C@@H]1NC(=O)[C@H](CCCCNC(=O)CCC(NC(=S)Nc2ccc(CC3CN(CC(=O)O)CCN(CC(=O)O)CCN(CC(=O)O)CCN3CC(=O)O)cc2)C(=O)NCCCC[C@@H]2NC(=O)[C@@H](Cc3ccc(O)cc3)NC(=O)[C@H](CC(=O)O)NC(=O)CNC(=O)[C@H](CCCNC(=N)N)NC2=O)NC(=O)[C@@H](Cc2ccc(O)cc2)NC(=O)[C@H](CC(=O)O)NC(=O)CNC1=O (stereo partly drawn) [scandium-44 labelled] | – | ex vivo γ-counting | female athymic nude mice, U-87 MG xenograft, brain | intravenous, 4 h, together with: cRGD 50 mg/kg blocking | – | tissue uptake | 0.008 ± 0.002 %ID/g
O=C(CN1CN(c2ccccc2)C2(CCN(C(=O)c3cnc4[nH]ncc4c3)CC2)C1=O)NCC(F)(F)F | Mitogen-activated protein kinase kinase kinase 12 (MAP3K12, Homo sapiens, UniProt Q12852) | inhibitor | – | concentration not given | – | inhibition | < 50%
C[C@H](NCc1ccc(-c2ccc(C(F)(F)F)cc2)cc1)C(N)=O | RAF proto-oncogene serine/threonine-protein kinase (RAF1, Homo sapiens, UniProt P04049) | cell-free assay, competition with immobilised ligand | – | 1 µM | – | inhibition | 3%

Repeated from above:
Compound | target or system | assay | system | setting | scale | endpoint | result
CC(=O)NC[C@@H]1C[C@@H](O)[C@H]2[C@H](O)C[C@@H](CO)N12 | β-N-acetylglucosaminidase | enzyme activity, inhibitor, colorimetric | Canavalia ensiformis | 18.8 nM, together with: p-nitrophenyl GlcNAc substrate | – | inhibition | 6.98% and 15%
CS(C)(=O)=Nc1ccc(-c2ccc(-c3nc4cc(O[C@@H]5CO[C@H]6[C@@H]5OC[C@H]6O)[nH]c4cc3F)cc2)cc1 | SRPK1 | enzyme activity, inhibitor | – | 10 µM | – | inhibition | -6%
